Published values of several laboratories.
Compare with care: the assays were run in different laboratories. Values joined by “and” are separate records of one study, mostly repeats; a detail may differ. ± marks the error that the study gave.

SMILES | target or system | assay | test system | conditions | how to read | measurement | result
CN1CCCN(S(=O)(=O)c2ccc(-c3ccc4c(Nc5ccc(OCc6cccc(F)c6)c(Cl)c5)ccnc4c3)cc2)CC1 | NIH 3T3 | PrestoBlue | 2% FBS medium | 96 h |  | TC50 | 11 µM
Cc1ccc2[nH]c3c(c2c1)CCCC3NCCc1ccc(Br)cc1 (stereo not shown) | A549 |  |  | 50 µM, 23 h |  | non-viable cells | 28.4 ± 24.5%
CC(C)C[C@@H](NC(=O)[C@H](N)CCCCN)C(=O)N[C@@H](C(=O)N[C@H](Cc1ccccc1)C(=O)N[C@H](Cc1ccccc1)C(N)=O)C(C)C | NGF-differentiated PC-12 neurons |  |  | 80 µM, 24 h | baseline: untreated | viability | 100%
CCCCN(CCCC)CCCNC(=O)c1cc(-c2ccc(Cl)s2)nc2ccccc12 | Vero-E6 | CellTiter-Glo ATP |  | 72 h, second round 5-point | baseline: DMSO 0%, hyamine -100%, more negative, more toxic | maximum response | -10.2%
CCn1nccc1Nc1ccnc2ccc(-c3ccc(S(=O)(=O)N4CCOCC4)cc3)cc12 | NIH 3T3 | cytotoxicity, PrestoBlue |  | 96 h, 2% FBS |  | TC50 | > 20 µM
CC[C@H](C)[C@H](NC(=O)[C@H](CC(C)C)NC(=O)[C@@H]1CCCN1C(=O)[C@H](CCC(N)=O)NC(=O)[C@H](CCCCN)NC(=O)[C@H](Cc1c[nH]cn1)NC(=O)[C@H](CS)NC(=O)[C@H](CCCNC(=N)N)NC(=O)[C@H](CCCCN)NC(=O)[C@H](CO)NC(=O)[C@H](CC(C)C)NC(=O)[C@H](CO)NC(=O)[C@H](Cc1ccccc1)NC(=O)[C@H](CC(C)C)NC(=O)[C@H](CCCCN)NC(=O)[C@H](Cc1c[nH]cn1)NC(=O)[C@@H](NC(=O)[C@@H](NC(=O)[C@H](CCCCN)NC(=O)[C@H](CCC(N)=O)NC(=O)[C@H](C)NC(=O)[C@H](CCCCN)NC(=O)[C@H](CC(C)C)NC(=O)[C@H](Cc1ccccc1)NC(=O)[C@H](CC(C)C)NC(=O)[C@H](CCC(N)=O)NC(=O)[C@@H](N)CCCCN)[C@@H](C)CC)C(C)C)C(=O)N[C@@H](CO)C(=O)N[C@@H](CC(C)C)C(=O)N1CCC[C@H]1C(=O)N[C@@H](CCCNC(=N)N)C(=O)N[C@@H](CCC(N)=O)C(=O)N[C@@H](CCCNC(=N)N)C(=O)O | THP-1, PMA-differentiated | cell viability, MTT |  |  |  | CC50 | 28.5 µM
O=c1ccc2ccccc2o1 | HepG2 | item: cellular ATP |  | 24 h |  | point of departure | 528 µM
Oc1ccc(C2(c3ccc(O)cc3)c3ccccc3-c3ccccc32)cc1 | HepG2 spheroids, dissociated | annexin V-FITC/PI flow cytometry |  | 0.1 µM, 24 h |  | late apoptotic cells | 14.3 ± 2.49%
CNC(=O)c1cc(Oc2ccc(NC(=O)Nc3cc(C(C)(C)C)nn3-c3ccc4ncccc4c3)c(F)c2)ccn1 | human coronavirus OC43 | virus-induced cell killing | MRC-5 | screen |  | maximum inhibition | 10.8%
COc1ccc(Nc2nc(Nc3ccc(OC)cc3OC)nc(N3CCOCC3)n2)c(OC)c1 | Vero-E6 | CellTiter-Glo ATP |  | 72 h, second round 5-point | baseline: DMSO 0%, hyamine -100%, more negative, more toxic | maximum response | -12.9%
CC[C@H](C)[C@H](NC(=O)[C@@H](N)CC(N)=O)C(=O)N1CCC[C@H]1C(=O)N1CCC[C@H]1C(=O)N[C@@H](CC(C)C)C(=O)N[C@H](C(=O)N[C@@H](CCC(N)=O)C(=O)N[C@H](C(=O)N1CCC[C@H]1C(=O)N[C@H](C(=O)N[C@H](C(=O)N[C@H](C(=O)N1CCC[C@H]1C(=O)N1CCC[C@H]1C(=O)N[C@@H](Cc1ccccc1)C(=O)N[C@@H](CC(C)C)C(=O)N[C@@H](CCC(N)=O)C(=O)N1CCC[C@H]1C(=O)N[C@@H](CCC(=O)O)C(=O)O)C(C)C)C(C)C)C(C)C)[C@@H](C)O)[C@@H](C)O | HEK293 (empty vector) |  |  | 10 µM, 5 min, 37 °C |  | uptake | 0.021 pmol/mg protein
COc1ccc(N2CCN(CCCNC(=O)c3cc(Nc4ccc(OC)cc4OC)nc4ccccc34)CC2)cc1 | Vero-E6 | CellTiter-Glo ATP |  | concentration not given, 72 h, second round 5-point | baseline: DMSO 0%, hyamine -100%, more negative, more toxic | cytotoxicity efficacy | -14.7%
O=S(=O)(c1ccc(-c2ccc3nccc(Nc4ncc(Cl)cn4)c3c2)cc1)N1CCOCC1 | NIH 3T3 | cytotoxicity, PrestoBlue |  | 96 h, 2% FBS |  | TC50 | > 20 µM
CN(C)N=O | HepaRG |  |  | maximum tested, 24 h, 72 h recovery | baseline: vehicle | relative survival | 68%
COc1ccc(Nc2nn3c(-c4ccccc4)ccnc3c2C(=O)Nc2ccccc2)cc1 | WI-38 | MTT | serum-free medium | 31.13 µg/mL, 48 h |  | viability | 82.7%
Cc1cc(C(C)(C)c2ccc(O)c(C)c2)ccc1O | HepG2 spheroids, dissociated | annexin V-FITC/PI flow cytometry |  | 0.1 µM, 24 h |  | viable cells | 71.4 ± 6.49%
CC(C)C[C@@H](N)C(=O)N[C@H](Cc1ccccc1)C(=O)N[C@H](Cc1ccccc1)C(=O)N[C@H](C)C(=O)N[C@H](CCC(=O)O)C(N)=O | NGF-differentiated PC-12 neurons |  |  | 20 µM, 24 h | baseline: untreated | viability | 75.6%
N.N.O=C([O-])C1(C(=O)[O-])CCC1.[Pt+2] | T47D | cell viability, MTT |  | 48 h |  | IC50 | 117 ± 3.23 µM
CC(C)C[C@@H](NC(=O)[C@H](N)CCCCN)C(=O)N1CCC[C@@H]1C(=O)N[C@H](Cc1ccccc1)C(=O)N[C@H](Cc1ccccc1)C(=O)N[C@H](C)C(=O)N[C@H](CCC(=O)O)C(N)=O | NGF-differentiated PC-12 neurons |  |  | 40 µM, 24 h | baseline: untreated | viability | 91.5%
C[C@@H]1O[C@@H](O[C@H]2C[C@@H](O)[C@]3(CO)[C@H]4[C@H](O)C[C@]5(C)[C@@H](C6=CC(=O)OC6)CC[C@]5(O)[C@@H]4CC[C@]3(O)C2)[C@H](O)[C@H](O)[C@H]1O | SUP-T1 | ATP content |  | 25 µM, 6 h |  | cytotoxicity | not toxic
O=S(=O)(c1ccc(O)cc1)c1ccc(O)cc1 | HepG2 spheroids, dissociated | annexin V-FITC/PI flow cytometry |  | 10 µM, 24 h |  | viable cells | 62.4 ± 9.38%
c1ccc2c(-c3nn4c(Cn5cnc6ccccc65)nnc4s3)cccc2c1 | HEp-2 | cytotoxicity |  |  |  | CC50 | > 100 µM
CC(=O)O[C@H]1CC[C@]2(C)[C@H]3CC[C@]4(C)Oc5oc(C)cc(=O)c5C[C@H]4[C@]3(C)CC[C@H]2C1(C)C | Calu-3 |  |  | 50 µM |  | cytotoxicity | 0%

SMILES | target or system | assay | test system | conditions | how to read | measurement | result
COc1ccc([C@@H]2CC(=O)c3c(O)cc(O[C@@H]4O[C@H](CO[C@@H]5O[C@@H](C)[C@H](O)[C@@H](O)[C@H]5O)[C@@H](O)[C@H](O)[C@H]4O)cc3O2)cc1O | BEAS-2B | fluorogenic substrate |  | 10 µM, 24 h | baseline: control | CYP1A1 induction | 1.6 fold
N.N.[Cl][Pt][Cl] | HepaRG | micronucleus formation |  |  |  | lowest effective concentration | 16 µM
O=S(=O)(c1ccc(-c2ccc3nccc(Nc4ccncn4)c3c2)cc1)N1CCOCC1 | NIH 3T3 | cytotoxicity, PrestoBlue |  | 96 h, 2% FBS |  | TC50 | > 20 µM
CC(C)C[C@@H](NC(=O)[C@H](N)CCCCN)C(=O)N[C@H](CC(C)C)C(=O)N[C@H](Cc1ccccc1)C(N)=O | NGF-differentiated PC-12 neurons |  |  | 160 µM, 24 h | baseline: untreated | viability | 92.2%
CC(C)C[C@H](NC(=O)[C@H](C)NC(=O)[C@@H](NC(=O)[C@H](CCCNC(=N)N)NC(=O)[C@H](CC(C)C)NC(=O)[C@H](Cc1c[nH]c2ccccc12)NC(=O)[C@@H]1CCCN1C(=O)[C@@H](N)CCCCN)C(C)C)C(=O)N[C@@H](CS)C(=O)N1CCC[C@H]1C(=O)NCC(=O)O | A549 | WST-1 |  | 16 µM, 24 h |  | viability | 93.1% and 83.7% and 77.6%
O=S(=O)(c1ccc(-c2ccc3nccc(Nc4ccccn4)c3c2)cc1)N1CCOCC1 | NIH 3T3 | cytotoxicity, PrestoBlue |  | 96 h, 2% FBS |  | TC50 | > 20 µM
Cc1ccc(Nc2ccnc(N3CCC(C(=O)NCCCc4ccccc4)CC3)n2)cc1 | Vero-E6 | CellTiter-Glo ATP |  | 72 h, second round 5-point | baseline: DMSO 0%, hyamine -100%, more negative, more toxic | maximum response | -29.1%
CC(C)C[C@@H](NC(=O)[C@H](N)CCCCN)C(=O)N[C@H](CC(C)C)C(=O)N[C@H](Cc1ccccc1)C(=O)N[C@H](Cc1ccccc1)C(=O)N[C@H](C)C(N)=O | NGF-differentiated PC-12 neurons |  |  | 80 µM, 24 h | baseline: untreated | viability | 92.1%
Cc1oc(-c2cccc(Cl)c2)nc1CN1CCCC(C(=O)NCCc2ccc(Cl)cc2)C1 (stereo not shown) | Vero-E6 | CellTiter-Glo ATP |  | concentration not given, 72 h, first round 5-point | baseline: DMSO 0%, hyamine -100%, more negative, more toxic | cytotoxicity efficacy | -18.6%
CCCCCCCCC[C@@H]1CC(=O)NCC(=O)N[C@H](Cc2ccc(O)cc2)C(=O)NCC(=O)N[C@@H](Cc2ccccc2)C(=O)O1 | BV-2 mouse microglia | ELISA | culture supernatant | 5 µM, added: LPS |  | soluble TLR2 level | increased
CC(C)C[C@@H](N)C(=O)N[C@H](CC(C)C)C(=O)N[C@H](Cc1ccccc1)C(=O)N[C@H](Cc1ccccc1)C(N)=O | NGF-differentiated PC-12 neurons |  |  | 10 µM, 24 h | baseline: untreated | viability | 61%
COc1cccc(-c2ccc(CN3CCCC(c4nc5ccc(C)cc5c(=O)[nH]4)C3)cc2)c1 (stereo not shown) | Vero-E6 | CellTiter-Glo ATP |  | concentration not given, 72 h, second round 5-point | baseline: DMSO 0%, hyamine -100%, more negative, more toxic | cytotoxicity efficacy | 0%
CC(C)C[C@@H](NC(=O)[C@H](N)CCCCN)C(=O)N1CCC[C@@H]1C(=O)N[C@H](Cc1ccccc1)C(=O)N[C@H](Cc1ccccc1)C(=O)N[C@H](C)C(N)=O | NGF-differentiated PC-12 neurons |  |  | 80 µM, 24 h | baseline: untreated | viability | 91.8%
c1cncc(-c2nn3c(Cn4nnc5ccccc54)nnc3s2)c1 | HEp-2 | cytotoxicity |  |  |  | CC50 | > 100 µM
[Cl][Cd][Cl] | HepaRG |  |  | maximum tested |  | micronucleated cells | 0.7%
CC(C)C[C@@H](N)C(=O)N1CCC[C@@H]1C(=O)N[C@H](Cc1ccccc1)C(=O)N[C@H](Cc1ccccc1)C(=O)N[C@H](C)C(=O)N[C@H](CCC(=O)O)C(N)=O | NGF-differentiated PC-12 neurons |  |  | 5 µM, 24 h | baseline: untreated | viability | 100%
Cc1nc2ccccc2n1Cc1nnc2sc(-c3ccc(Cl)nc3Cl)nn12 | HEp-2 | cytotoxicity |  |  |  | CC50 | > 100 µM
O=[N+]([O-])c1ccc(-c2nn(-c3ccccc3)c3sc(NC(c4ccccc4O)P(=O)(Oc4ccccc4)Oc4ccccc4)nc23)cc1 (stereo not shown) | BNL mouse liver cells | SRB |  | 10 µM, 10% fetal bovine serum |  | viability | 95.6%
CCN(CC)CCNC(=O)c1cc(-c2ccc(Br)s2)nc2ccccc12 | Vero-E6 | CellTiter-Glo ATP |  | concentration not given, 72 h, first round 5-point | baseline: DMSO 0%, hyamine -100%, more negative, more toxic | cytotoxicity efficacy | -15.2%
CCCCN1CCC(N(Cc2ccccc2)C(=O)Nc2cccnc2)CC1 | HCC95 cells | CellTiter-Glo |  |  |  | LD50 | > 200 µM
COc1ccccc1-c1ccc(CN2CCCC(c3nc4ccc(C)cc4c(=O)[nH]3)C2)cc1 (stereo not shown) | Vero-E6 | CellTiter-Glo ATP |  | concentration not given, 72 h, first round 5-point | baseline: DMSO 0%, hyamine -100%, more negative, more toxic | cytotoxicity efficacy | -32.7%
Oc1ccc(C(c2ccc(O)cc2)(C(F)(F)F)C(F)(F)F)cc1 | HepG2 spheroids, dissociated | annexin V-FITC/PI flow cytometry |  | 0.1 µM, 24 h |  | viable cells | 70 ± 8.99%
N#C[C@@]1(n2ccc(N)nc2=O)O[C@H](CO)[C@@H](O)[C@H]1O | CHO |  |  | 130 µM, with S9 |  | micronucleated cells | 0.21%

Repeated from above:
SMILES | target or system | assay | test system | conditions | how to read | measurement | result
CN(C)N=O | HepaRG |  |  | maximum tested, 24 h, 72 h recovery | baseline: vehicle | relative survival | 68%
COc1ccc(Nc2nn3c(-c4ccccc4)ccnc3c2C(=O)Nc2ccccc2)cc1 | WI-38 | MTT | serum-free medium | 31.13 µg/mL, 48 h |  | viability | 82.7%
c1cncc(-c2nn3c(Cn4nnc5ccccc54)nnc3s2)c1 | HEp-2 | cytotoxicity |  |  |  | CC50 | > 100 µM
Cc1ccc(Nc2ccnc(N3CCC(C(=O)NCCCc4ccccc4)CC3)n2)cc1 | Vero-E6 | CellTiter-Glo ATP |  | 72 h, second round 5-point | baseline: DMSO 0%, hyamine -100%, more negative, more toxic | maximum response | -29.1%
